Measurements of several laboratories.
Compare with care: the assays were run in different laboratories. Numbers after ± are the reported error.
APP: Amyloid-beta precursor protein (APP, Homo sapiens, UniProt P05067)
Tripartite terminase subunit 3 C-terminal nuclease domain: Tripartite terminase subunit 3, C-terminal nuclease domain (Human betaherpesvirus 5, UniProt P16732)

SMILES	target or system	assay	system	setting	scale	measurement	result
Nc1ccncc1	Voltage-gated potassium channel, KQT; KCNQ2(Kv7.2)/KCNQ3(Kv7.3) (KCNQ3/KCNQ2, Homo sapiens, UniProt O43525+O43526)	ion current, antagonist, automated patch clamp	HEK293	3 µM	–	inhibition	-2%
CC12C(=O)OC(=O)C1(C)C1CCC2O1 (centres unmarked)	Serine/threonine-protein phosphatase 5 (Homo sapiens, UniProt P53041)	enzyme activity, inhibitor, DiFMUP	–	concentration not given	–	inhibition	inhibited
COc1cc(Nc2ncc(F)c(Nc3ccc4c(n3)NC(=O)C(C)(C)O4)n2)cc(OC)c1OC	CDK7 (Homo sapiens, UniProt P50613)	KINOMEscan	–	10 µM	–	inhibition	0%
CC[C@H](C)[C@@H]1NC(=O)[C@@H]2CCCN2C(=O)[C@H](CC(C)C)NC(=O)[C@H](CC(C)C)NC(=O)CNC(=O)[C@@H](NC(=O)[C@@H](NC(=O)[C@H](CC(=O)O)NC(=O)CNC(=O)[C@@H](NC(=O)[C@H](C)NC(=O)CNC(=O)[C@H](CCCCN)NC(=O)[C@H](CC(C)C)NC(=O)[C@H](CC(C)C)NC(=O)[C@H](CCCCN)NC(=O)CNC(=O)[C@@H](NC(=O)[C@@H](N)CC(C)C)C(C)C)C(C)C)C(C)C)CSSC[C@@H](C(=O)O)NC1=O	–	RNA-seq, item: Iglc1	mouse, traumatic brain injury model, frontal cortex and hippocampus	dose not given	relative to: TBI alone	log2 fold change	-3.26
O=C(Nc1ccc2c(c1)B(O)OC2)c1ccc(OCc2ccccc2)cc1	Genome polyprotein, NS2B-NS3 protease (West Nile virus, UniProt P06935)	enzyme activity, FRET	–	50 µM, with: substrate 50 µM	–	inhibition	12 ± 5%
C[C@H]1CN(c2n[nH]c3nc(N[C@H]4CC[C@H](NS(=O)(=O)CCC(F)(F)F)CC4)ncc23)CCO1	Protein Aster-A (Homo sapiens, UniProt Q96CP6)	Kinobeads competition, item: GRAMD1A	–	0.16 µM, unit not given	relative to: vehicle	remaining binding	1.74
Cc1cccc(COc2cccc(C(=O)Nc3ccc4c(c3)B(O)OC4)c2)c1	Genome polyprotein, NS2B-NS3 protease (dengue virus type 2, UniProt P29990)	enzyme activity, FRET	dengue virus serotype 2	50 µM, with: substrate 50 µM	–	inhibition	19 ± 9%
CC(=O)N[C@H]1C/C=C/COc2ccc(cc2)C[C@@H](C(=O)N[C@@H](CCCNC(=N)N)C(=O)c2nc3ccccc3s2)NC(=O)[C@H](CC(C)C)NC1=O	Hepatocyte growth factor activator serine protease (Homo sapiens, UniProt Q04756)	inhibitor, fluorogenic	–	concentration not given	–	inhibition	no inhibition
CC[C@H](C)[C@H](NC(=O)[C@H](Cc1ccccc1)NC(=O)[C@H](CCC(=O)O)NC(=O)[C@H](CCCNC(=N)N)NC(=O)[C@H](C)NC(=O)[C@H](C)NC(=O)[C@H](CCC(N)=O)NC(=O)[C@H](CCC(=O)O)NC(=O)[C@H](CCC(=O)O)NC(=O)[C@H](CC(C)C)NC(=O)[C@H](Cc1ccc(O)cc1)NC(=O)[C@H](CO)NC(=O)[C@H](CO)NC(=O)[C@@H](NC(=O)[C@H](CC(=O)O)NC(=O)[C@H](CO)NC(=O)[C@@H](NC(=O)[C@H](Cc1ccccc1)NC(=O)[C@@H](NC(=O)CNC(=O)[C@H](CCC(=O)O)NC(=O)[C@H](C)NC(=O)CCc1c[nH]cn1)[C@@H](C)O)[C@@H](C)O)C(C)C)C(=O)N[C@@H](C)C(=O)N[C@@H](Cc1c[nH]c2ccccc12)C(=O)N[C@@H](CC(C)C)C(=O)N[C@H](C(=O)N[C@@H](CCCNC(=N)N)C(=O)NCC(=O)N[C@@H](CCCNC(=N)N)C(=O)N[C@@H](CCCCNC(=O)COCCOCCNC(=O)COCCOCCNC(=O)CC[C@H](NC(=O)CCCCCCCCCCCCCCCCC(=O)O)C(=O)O)C(=O)NCC(=O)NCC(=O)N[C@@H](CO)C(=O)N[C@@H](CCCCNc1c(NCCCCCN(O)C(=O)CCC(=O)NCCCCCN(O)C(=O)CCC(=O)NCCCCCN(O)C(C)=O)c(=O)c1=O)C(=O)O)C(C)C [zirconium-89 labelled]	–	–	rat, duodenum	sc, 3 nmol/kg, 4 h, ex vivo	–	tissue uptake	0.15 %ID/g
c1ccc(C(NCCNC(c2ccccc2)c2ccccc2)c2ccccc2)cc1	protein kinase C, rat	enzyme activity	–	10 µM, Eurofins selectivity panel	–	inhibition	14%
CO[C@H]1C[C@@H]2CC[C@@H](C)[C@@](O)(O2)C(=O)C(=O)N2CCCC[C@H]2C(=O)O[C@H]([C@H](C)C[C@@H]2CC[C@@H](OC(=O)NCCOCCOCCOCCOCCOCCOCCOCCOCCC(=O)N3CCc4cc(Cn5nc(-c6ccc7oc(N)nc7c6)c6c(N)ncnc65)ccc4C3)[C@H](OC)C2)C[C@@H](O)[C@H](C)/C=C(\C)[C@@H](O)[C@@H](OC)C(=O)[C@H](C)C[C@H](C)/C=C/C=C/C=C/1C	–	–	advanced solid tumour patients	intravenous, 1.6 mg/3 mg weekly, grade ≥3	–	incidence of TEAE	40%
CN1CC[C@@H](c2c(O)cc(O)c3c(=O)cc(-c4ccc(C(F)(F)F)cc4Cl)oc23)[C@@H]1CO	–	item: Hypotension	relapsed B-cell malignancies or AML	oral, 100 mg, grade 3-4, continuous dosing	–	patients with adverse event	12.5%
C#Cc1n[nH]c2c(-c3cn([C@@H](C)c4ccccn4)c(=O)[nH]c3=O)cc(F)cc12	Cyclin-dependent kinase 7, with cyclin H, MAT1 (CDK7, Homo sapiens, UniProt P50613)	kinase activity, inhibitor	–	100 nM	–	inhibition	6.9%
CN[C@@]1(c2ccccc2Cl)CCCCC1=O	muscle nicotinic acetylcholine receptor	radioligand binding, antagonist, radioligand displacement	–	30 µM	–	inhibition	-14%
O=C(Nc1ccc2c(c1)B(O)OC2)c1ccc(OCc2ccc(Cl)cc2)cc1	Genome polyprotein, NS2B-NS3 protease (dengue virus type 2, UniProt P29990)	enzyme activity, FRET	dengue virus serotype 2	50 µM, with: substrate 50 µM	–	inhibition	≤ 10%
COc1ccc(N2C(=O)N(c3c(C)cccc3Cl)Cc3cnc(Nc4ccc(C5CCN(C)CC5)cc4OC)nc32)nc1	STK10 (Homo sapiens, UniProt O94804)	kinase activity, inhibitor	–	0.5 µM, kinase LOK	–	inhibition	44%
CC(=O)N[C@@H]1C(NC(=N)N)C[C@](OCC2O[C@@H](Oc3ccc([N+](=O)[O-])cc3)C(O)C(O)[C@H]2O)(C(=O)O)OC1[C@H](O)[C@H](O)CO (some centres unmarked)	Sialidase A (nanA, Streptococcus pneumoniae, UniProt P62575)	–	–	8 µM, pH 6	–	inhibition	6.4 ± 0.3%
COc1cc(/C=C/C(=O)CC(=O)/C=C/c2ccc(O)c(OC)c2)ccc1O	APP	Aβ42 self-aggregation, inhibitor, thioflavin T fluorescence	–	0.01 µM	–	inhibition	2.3%
C[C@@H]1N=C(c2ccccc2F)c2cc(Br)ccc2-n2cnc(C(=O)O)c21	peripheral benzodiazepine receptor	binding	–	10 µM	–	inhibition	23.3 ± 8.5%
CC(C)c1cc(Br)c(NC(=O)Nc2cccnc2)c(Br)c1	P2X purinoceptor 4 (P2RX4, Homo sapiens, UniProt Q99571)	ion current, antagonist, whole-cell patch clamp	HEK293T cells	10 µM	–	inhibition	84.05 ± 0.01%
COc1c(CCC[P+](c2ccccc2)(c2ccccc2)c2ccccc2)cc2c(c1OC)OCO2.[I-]	ACHN	SRB	–	–	–	TGI	-4.53 log M
O=C(Nc1cccc(B(O)O)c1)c1cccc(OCc2ccccc2)c1	Genome polyprotein, NS2B-NS3 protease (West Nile virus, UniProt P06935)	enzyme activity, FRET	–	50 µM, with: substrate 50 µM	–	inhibition	≤ 10%

SMILES	target or system	assay	system	setting	scale	measurement	result
CN(C(=O)n1cnc(-c2ccc[n+]([O-])c2)c1)C1CCCCC1	HRH4 (Homo sapiens, UniProt Q9H3N8)	radioligand binding	–	50 µM, with: [3H]histamine	–	inhibition	12%
O=c1[nH]c2sccc2c(=O)n1O	Tripartite terminase subunit 3 C-terminal nuclease domain	endonuclease activity, ELISA	–	20 µM, with: dsDNA	–	inhibition	94%
O=C(Nc1cccc(C(=O)Nc2ccc3c(c2)B(O)OC3)c1)c1ccccc1	Genome polyprotein, NS2B-NS3 protease (West Nile virus, UniProt P06935)	enzyme activity, FRET	–	50 µM, with: substrate 50 µM	–	inhibition	42 ± 1%
Cc1c(C(=O)O)sc2[nH]c(=O)n(O)c(=O)c12	Tripartite terminase subunit 3 C-terminal nuclease domain	endonuclease activity, ELISA	–	20 µM, with: dsDNA	–	inhibition	91%
O=c1ccc2ccccc2o1	Maoa (Rattus norvegicus, UniProt P21396)	radioligand binding, antagonist	–	10 µM	–	inhibition	22.7%
Nc1c2c(nc3c1C(c1ccc(Cl)c(Cl)c1)c1ccc(OCC(=O)c4ccccc4)cc1O3)CCCC2 (centres unmarked)	APP	Aβ42 self-aggregation, inhibitor, thioflavin T fluorescence	–	100 µM	–	inhibition	86%
O=C(NCc1ccc(B(O)O)cc1)c1cccc(OCc2ccccc2)c1	Genome polyprotein, NS2B-NS3 protease (dengue virus type 2, UniProt P29990)	enzyme activity, FRET	dengue virus serotype 2	50 µM, with: substrate 50 µM	–	inhibition	≤ 10%
O=C(c1ccc(Cl)cc1)N1CCN2C(=O)N(OC(=O)N3CCOc4ccccc43)C(=O)C2C1 (centres unmarked)	PNPLA8 (Homo sapiens, UniProt Q9NP80)	enzyme activity, inhibitor, MS-based ABPP	SW-620 in situ	10 µM, 2 h, 37 °C	relative to: compound over DMSO, lower = stronger inhibition	median ratio	1.08
O=C(Nc1cnccc1Cl)N1CCN(Cc2ccc3c(c2)OC(F)(F)O3)CC1	Tmem97 (Rattus norvegicus, UniProt Q5U3Y7)	radioligand binding, inhibitor	–	10 µM, rat, with: [3H]ifenprodil	–	inhibition	47%
O=C(Nc1ccc2c(c1)B(O)OC2)c1ccc(N2CCOCC2)cc1	Genome polyprotein, NS2B-NS3 protease (West Nile virus, UniProt P06935)	enzyme activity, FRET	–	50 µM, with: substrate 50 µM	–	inhibition	≤ 10%
C[C@@H](O)[C@@H](CO)NC(=O)[C@@H](CCCNC(=N)N)NC(=O)[C@@H]1CCCN1C(=O)[C@@H]1CSSC[C@H](NC(=O)[C@H](Cc2ccccc2)NC(=O)CN2CCN(CC(=O)O)CCN(CC(=O)O)CCN(CC(=O)O)CC2)C(=O)N[C@@H](Cc2ccc(O)cc2)C(=O)N[C@@H](Cc2ccccc2)C(=O)N[C@@H](CCC(N)=O)C(=O)N[C@@H](CC(N)=O)C(=O)N1 [gallium-68 labelled]	–	–	healthy Wistar rat, kidneys	intravenous, 8 MBq, 30 min, individual animals	–	tissue uptake	7.37 %ID/g
CC(C)CC(=O)OC[C@H]1O[C@@](C#N)(c2ccc3c(N)ncnn23)[C@H](O)[C@@H]1O	Na+/K+-ATPase pig heart	–	–	20 µM	–	inhibition	-4%
Oc1ccc2c3c1O[C@H]1[C@@H](O)CC[C@@]4(O)[C@@H](C2)N(CC2CCC2)CC[C@]314	G-protein coupled receptor family C group 5 member D (GPRC5D, Homo sapiens, UniProt Q9NZD1)	β-arrestin recruitment, TANGO luminescence, item: GPRC5D	–	concentration not given	relative to: basal luminescence	log2 fold change	0.484
CN1CCN(c2cc(-c3ccncc3)c(-c3ccc4ccccc4c3)nn2)CC1	TACR3 (Homo sapiens, UniProt P29371)	antagonist, FLIPR	–	10 µM	–	inhibition	-15.7%
O=C(Nc1ccc2c(c1)B(O)OC2)c1cccc(OCc2c(Cl)cccc2Cl)c1	Genome polyprotein, NS2B-NS3 protease (West Nile virus, UniProt P06935)	enzyme activity, FRET	–	50 µM, with: substrate 50 µM	–	inhibition	20 ± 7%
COc1cc2c(Oc3ccc4[nH]c(C)cc4c3F)ccnc2cc1OCC1(N)CC1	–	–	paediatric recurrent refractory sarcoma	12 mg	–	grade 3 Vomiting	0%
CC(=O)c1c(C)c2cnc(Nc3ccc(C4CCN(CCS(C)(=O)=O)CC4)cn3)nc2n(C2CCCC2)c1=O	–	–	HR+/HER2- advanced breast cancer patients	oral, dose not given	–	patients with TRAE ≥grade 3	52.6%
O=C(Nc1ccc(S(=O)(=O)N2CCC(Cl)CC2)cc1)c1ccc([N+](=O)[O-])o1	rat GABAA receptor benzodiazepine site	flunitrazepam radioligand binding	brain	10 µM	–	inhibition	21%
Cc1ncc(C)n2nc(/C=C/c3nc(N4CCCC4)cc(N4CCOCC4)n3)nc12	PDE4D (Homo sapiens, UniProt Q08499)	enzyme activity	–	10 µM	–	inhibition	18%
Nc1c2c(nc3c1C(c1cccc([N+](=O)[O-])c1)c1ccc(OS(=O)(=O)c4ccc(F)cc4)cc1O3)CCCC2 (centres unmarked)	APP	Aβ42 self-aggregation, inhibitor, thioflavin T fluorescence	–	0.01 µM	–	inhibition	3.5%
O=c1[nH]c2sc3c(c2c(=O)n1O)CCCC3	Tripartite terminase subunit 3 C-terminal nuclease domain	endonuclease activity, ELISA	–	20 µM, with: dsDNA	–	inhibition	100%
O=C(Nc1cccnn1)N1CCC(=Cc2cccc(Oc3ccc(C(F)(F)F)cn3)c2)CC1	ADORA1 (Homo sapiens, UniProt P30542)	binding	–	50 µM, with: [3H]DPCPX	–	inhibition	35%

For quick reference, copied from above:
SMILES	target or system	assay	system	setting	scale	measurement	result
CN1CC[C@@H](c2c(O)cc(O)c3c(=O)cc(-c4ccc(C(F)(F)F)cc4Cl)oc23)[C@@H]1CO	–	item: Hypotension	relapsed B-cell malignancies or AML	oral, 100 mg, grade 3-4, continuous dosing	–	patients with adverse event	12.5%
Cc1c(C(=O)O)sc2[nH]c(=O)n(O)c(=O)c12	Tripartite terminase subunit 3 C-terminal nuclease domain	endonuclease activity, ELISA	–	20 µM, with: dsDNA	–	inhibition	91%
COc1cc(/C=C/C(=O)CC(=O)/C=C/c2ccc(O)c(OC)c2)ccc1O	APP	Aβ42 self-aggregation, inhibitor, thioflavin T fluorescence	–	0.01 µM	–	inhibition	2.3%
CC(=O)N[C@H]1C/C=C/COc2ccc(cc2)C[C@@H](C(=O)N[C@@H](CCCNC(=N)N)C(=O)c2nc3ccccc3s2)NC(=O)[C@H](CC(C)C)NC1=O	Hepatocyte growth factor activator serine protease (Homo sapiens, UniProt Q04756)	inhibitor, fluorogenic	–	concentration not given	–	inhibition	no inhibition
